Experimental data pooled from the literature.
Lines come from different studies, so protocols differ. “And” joins repeats or separate records; there may be more than shown. ± gives the spread as reported.
PRT1: E3 ubiquitin-protein ligase PRT1 (PRT1, Arabidopsis thaliana, UniProt Q8LBL5)
Sequence of UniProt Q8LBL5 (whole entry, looked up): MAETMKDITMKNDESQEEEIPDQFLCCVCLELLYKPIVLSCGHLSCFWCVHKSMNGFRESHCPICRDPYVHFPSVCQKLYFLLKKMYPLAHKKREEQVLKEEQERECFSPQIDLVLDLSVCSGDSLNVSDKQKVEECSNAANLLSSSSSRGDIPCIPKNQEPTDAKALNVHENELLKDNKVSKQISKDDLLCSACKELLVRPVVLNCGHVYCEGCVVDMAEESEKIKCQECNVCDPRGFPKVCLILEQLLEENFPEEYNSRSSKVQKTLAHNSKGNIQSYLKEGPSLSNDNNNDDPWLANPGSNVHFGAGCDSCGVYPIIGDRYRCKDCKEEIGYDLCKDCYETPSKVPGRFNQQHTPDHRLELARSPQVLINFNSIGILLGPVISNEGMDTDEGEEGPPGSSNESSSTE
YES1 SH2 domain: Tyrosine-protein kinase Yes, SH2 domain (YES1, Homo sapiens, UniProt P07947)
Sequence of UniProt P21553 (whole entry, looked up): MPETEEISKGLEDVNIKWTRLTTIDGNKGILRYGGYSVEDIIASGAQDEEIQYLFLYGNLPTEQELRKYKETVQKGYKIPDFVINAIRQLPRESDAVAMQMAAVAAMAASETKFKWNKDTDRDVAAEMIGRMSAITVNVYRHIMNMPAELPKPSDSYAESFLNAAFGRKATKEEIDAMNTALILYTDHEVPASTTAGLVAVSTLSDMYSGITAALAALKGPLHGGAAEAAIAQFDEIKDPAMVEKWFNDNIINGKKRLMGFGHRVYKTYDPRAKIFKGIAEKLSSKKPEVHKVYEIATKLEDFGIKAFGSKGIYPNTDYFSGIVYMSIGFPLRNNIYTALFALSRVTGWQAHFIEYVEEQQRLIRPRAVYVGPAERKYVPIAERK
Sequence of UniProt P07947 (whole entry, looked up): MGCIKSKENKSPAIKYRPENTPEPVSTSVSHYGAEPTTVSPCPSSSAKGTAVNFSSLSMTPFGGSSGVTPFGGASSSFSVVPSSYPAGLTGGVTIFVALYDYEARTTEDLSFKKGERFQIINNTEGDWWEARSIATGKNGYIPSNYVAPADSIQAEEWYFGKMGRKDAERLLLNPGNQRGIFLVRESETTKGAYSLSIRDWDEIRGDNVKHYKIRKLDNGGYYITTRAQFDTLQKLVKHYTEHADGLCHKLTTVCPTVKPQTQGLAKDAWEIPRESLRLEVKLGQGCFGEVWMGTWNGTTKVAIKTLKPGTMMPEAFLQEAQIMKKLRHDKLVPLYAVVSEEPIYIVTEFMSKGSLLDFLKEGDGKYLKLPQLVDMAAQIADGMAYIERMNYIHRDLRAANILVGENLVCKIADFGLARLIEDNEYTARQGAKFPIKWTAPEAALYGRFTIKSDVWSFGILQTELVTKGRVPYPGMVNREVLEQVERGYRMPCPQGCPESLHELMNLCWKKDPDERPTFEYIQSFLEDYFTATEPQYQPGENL
Sequence of UniProt P16885 (whole entry, looked up): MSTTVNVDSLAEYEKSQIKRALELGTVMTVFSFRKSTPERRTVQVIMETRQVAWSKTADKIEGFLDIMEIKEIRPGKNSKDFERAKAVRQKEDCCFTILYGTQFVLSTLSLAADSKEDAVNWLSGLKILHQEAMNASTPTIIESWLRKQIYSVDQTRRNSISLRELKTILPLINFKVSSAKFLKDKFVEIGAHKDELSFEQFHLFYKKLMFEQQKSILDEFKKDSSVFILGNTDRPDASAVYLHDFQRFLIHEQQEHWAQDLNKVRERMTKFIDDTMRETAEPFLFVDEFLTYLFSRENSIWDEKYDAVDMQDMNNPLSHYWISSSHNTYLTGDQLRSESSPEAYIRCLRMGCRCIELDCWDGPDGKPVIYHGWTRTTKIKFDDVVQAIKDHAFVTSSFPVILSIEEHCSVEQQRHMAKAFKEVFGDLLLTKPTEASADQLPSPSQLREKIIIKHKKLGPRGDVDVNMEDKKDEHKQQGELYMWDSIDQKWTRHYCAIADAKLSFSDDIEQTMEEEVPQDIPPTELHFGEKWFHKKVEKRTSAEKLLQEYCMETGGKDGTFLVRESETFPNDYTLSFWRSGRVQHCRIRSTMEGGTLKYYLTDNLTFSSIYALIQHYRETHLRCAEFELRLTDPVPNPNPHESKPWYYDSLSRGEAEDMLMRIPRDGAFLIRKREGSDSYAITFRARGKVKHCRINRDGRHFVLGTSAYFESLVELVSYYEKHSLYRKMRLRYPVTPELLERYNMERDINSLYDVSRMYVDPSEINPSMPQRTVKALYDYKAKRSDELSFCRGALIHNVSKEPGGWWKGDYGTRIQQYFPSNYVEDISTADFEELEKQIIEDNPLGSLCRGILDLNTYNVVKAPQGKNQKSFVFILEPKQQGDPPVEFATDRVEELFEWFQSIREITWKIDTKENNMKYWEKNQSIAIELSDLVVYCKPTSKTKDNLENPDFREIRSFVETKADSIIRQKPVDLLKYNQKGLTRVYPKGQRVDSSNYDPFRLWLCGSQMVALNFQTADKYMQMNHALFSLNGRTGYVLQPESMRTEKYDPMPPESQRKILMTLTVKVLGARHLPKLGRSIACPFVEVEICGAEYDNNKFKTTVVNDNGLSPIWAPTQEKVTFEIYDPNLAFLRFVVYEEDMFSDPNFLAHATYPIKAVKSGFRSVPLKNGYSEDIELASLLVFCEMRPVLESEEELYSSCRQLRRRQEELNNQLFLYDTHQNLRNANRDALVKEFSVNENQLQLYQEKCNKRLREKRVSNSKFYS
Sequence of UniProt Q8N5H7 (whole entry, looked up): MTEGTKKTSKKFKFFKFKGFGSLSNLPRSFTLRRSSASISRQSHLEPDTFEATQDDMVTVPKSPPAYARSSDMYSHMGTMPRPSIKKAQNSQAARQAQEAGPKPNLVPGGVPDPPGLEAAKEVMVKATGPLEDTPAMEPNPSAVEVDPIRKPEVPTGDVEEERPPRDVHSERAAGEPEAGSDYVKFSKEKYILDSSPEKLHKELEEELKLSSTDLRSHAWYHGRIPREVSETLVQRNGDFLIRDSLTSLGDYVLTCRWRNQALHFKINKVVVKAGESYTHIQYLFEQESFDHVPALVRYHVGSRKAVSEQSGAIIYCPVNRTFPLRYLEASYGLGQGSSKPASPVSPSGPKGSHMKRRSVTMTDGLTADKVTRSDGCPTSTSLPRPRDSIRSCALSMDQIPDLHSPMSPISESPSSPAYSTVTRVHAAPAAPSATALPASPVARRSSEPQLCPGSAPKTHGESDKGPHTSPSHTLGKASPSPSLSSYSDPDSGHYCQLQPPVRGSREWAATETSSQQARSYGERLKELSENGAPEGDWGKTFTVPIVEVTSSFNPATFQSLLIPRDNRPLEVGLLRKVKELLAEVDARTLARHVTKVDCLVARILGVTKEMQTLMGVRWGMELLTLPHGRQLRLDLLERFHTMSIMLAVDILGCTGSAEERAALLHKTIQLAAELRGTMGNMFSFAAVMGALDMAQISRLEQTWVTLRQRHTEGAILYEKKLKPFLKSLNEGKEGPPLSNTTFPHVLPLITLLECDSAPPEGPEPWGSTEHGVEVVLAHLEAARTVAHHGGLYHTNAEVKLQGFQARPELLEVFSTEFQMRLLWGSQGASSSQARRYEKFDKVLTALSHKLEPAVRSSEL
Sequence of UniProt P78356 (whole entry, looked up): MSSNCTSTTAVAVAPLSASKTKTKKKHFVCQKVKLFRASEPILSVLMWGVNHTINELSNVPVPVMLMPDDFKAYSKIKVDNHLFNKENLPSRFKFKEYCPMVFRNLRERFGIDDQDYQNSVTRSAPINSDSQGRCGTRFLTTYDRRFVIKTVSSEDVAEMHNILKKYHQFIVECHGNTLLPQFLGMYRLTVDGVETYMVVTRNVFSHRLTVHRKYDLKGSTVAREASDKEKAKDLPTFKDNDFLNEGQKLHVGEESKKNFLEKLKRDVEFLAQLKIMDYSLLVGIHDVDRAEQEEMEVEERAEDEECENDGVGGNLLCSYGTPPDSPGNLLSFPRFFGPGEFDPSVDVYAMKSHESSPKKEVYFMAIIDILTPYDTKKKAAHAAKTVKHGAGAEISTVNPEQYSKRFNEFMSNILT
Sequence of UniProt Q8N4A0 (whole entry, unmodified, looked up): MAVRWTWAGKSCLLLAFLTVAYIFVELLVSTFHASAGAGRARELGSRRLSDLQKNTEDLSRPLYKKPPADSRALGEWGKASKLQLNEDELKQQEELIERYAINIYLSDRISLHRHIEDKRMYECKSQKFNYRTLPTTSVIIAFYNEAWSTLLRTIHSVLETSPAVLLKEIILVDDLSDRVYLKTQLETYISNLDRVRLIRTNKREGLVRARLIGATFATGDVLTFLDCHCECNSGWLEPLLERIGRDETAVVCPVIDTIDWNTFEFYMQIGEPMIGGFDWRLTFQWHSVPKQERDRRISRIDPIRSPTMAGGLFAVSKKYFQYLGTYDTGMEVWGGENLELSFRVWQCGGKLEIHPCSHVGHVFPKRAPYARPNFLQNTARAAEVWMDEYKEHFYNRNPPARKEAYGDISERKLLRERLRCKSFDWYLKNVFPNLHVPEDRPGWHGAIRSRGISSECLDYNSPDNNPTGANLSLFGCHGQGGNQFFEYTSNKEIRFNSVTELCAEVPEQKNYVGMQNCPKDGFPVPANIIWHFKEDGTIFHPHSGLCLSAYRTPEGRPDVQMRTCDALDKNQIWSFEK
Sequence of UniProt Q9EP73 (whole entry, looked up): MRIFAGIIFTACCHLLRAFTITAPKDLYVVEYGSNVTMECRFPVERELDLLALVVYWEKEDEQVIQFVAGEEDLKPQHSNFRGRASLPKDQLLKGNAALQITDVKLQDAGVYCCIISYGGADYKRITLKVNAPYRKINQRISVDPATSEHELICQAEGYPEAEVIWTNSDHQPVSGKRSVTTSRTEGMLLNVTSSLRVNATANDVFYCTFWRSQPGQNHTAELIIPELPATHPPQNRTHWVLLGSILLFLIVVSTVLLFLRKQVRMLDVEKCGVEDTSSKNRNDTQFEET
Sequence of UniProt O49687 (55-253, looked up): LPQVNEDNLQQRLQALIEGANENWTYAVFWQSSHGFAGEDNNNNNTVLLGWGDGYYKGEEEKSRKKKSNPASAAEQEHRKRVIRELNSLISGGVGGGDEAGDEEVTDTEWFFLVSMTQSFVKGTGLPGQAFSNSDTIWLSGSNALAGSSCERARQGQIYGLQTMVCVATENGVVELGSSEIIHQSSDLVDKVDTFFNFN

| Compound | target | assay | system | conditions | Kd |
| --- | --- | --- | --- | --- | --- |
| CSCC[C@H](NC(=O)[C@H](Cc1ccc(OP(=O)(O)O)cc1)NC(=O)CNC(=O)CNC(=O)[C@H](CC(=O)O)NC(=O)[C@H](CO)NC(=O)[C@H](CCC(=O)O)NC(=O)CNC(=O)[C@@H](NC(=O)[C@H](CC(C)C)NC(=O)[C@H](CO)NC(=O)c1ccc2c(c1)C(=O)OC21c2ccc(N(C)C)cc2Oc2cc(N(C)C)ccc21)[C@@H](C)O)C(=O)N[C@@H](CC(=O)O)C(=O)N[C@@H](CCSC)C(=O)N[C@@H](CO)C(=O)N[C@@H](CCCCN)C(=O)N[C@@H](CC(=O)O)C(=O)N[C@@H](CCC(=O)O)C(=O)N[C@@H](CC(=O)O)C(=O)O | Phosphatidylinositol 3-kinase regulatory subunit beta, SH2 domain (Homo sapiens, UniProt O00459) | binding | – | – | 0.165 µM |
| C[C@@H](O)[C@H](NC(=O)[C@@H](N)CCCCN)C(=O)N[C@@H](CC(=O)O)C(=O)N[C@@H](CC(N)=O)C(=O)N[C@@H](CC(N)=O)C(=O)N[C@@H](CC(N)=O)C(=O)N[C@@H](CO)C(=O)N[C@@H](CC(N)=O)C(=O)N[C@@H](Cc1ccccc1)C(=O)O | HLA class I histocompatibility antigen, A alpha chain, allele A*01:01 (Homo sapiens, UniProt P04439) | binding, fluorescence competition | – | 2 days, HLA-A*0101, together with: 6-FAM-labelled peptide tracer | 8.2 µM |
| CO[C@@H]1[C@@H](OC(N)=O)[C@@H](O)[C@H](Oc2ccc3c(O)c(NC(=O)c4ccc(O)c(CC=C(C)C)c4)c(=O)oc3c2C)OC1(C)C | Multidrug resistance operon repressor (mexR, Pseudomonas aeruginosa, UniProt P52003, F17A/M14A/Q18A/R21A) | – | – | – | 238 µM |
| CC[C@@H](C)[C@@H](NC(=O)[C@@H](Cc1ccc(O)cc1)NC(=O)[C@H]1CCCN1C(=O)[C@@H](CCCNC(=N)N)NC(=O)[C@H](N)Cc1c[nH]cn1)C(=O)N[C@H](C)C(=O)N[C@H](Cc1c[nH]cn1)C(=O)N[C@H](CCCNC(=N)N)C(=O)N[C@@H](C(=O)N[C@H](Cc1ccc(O)cc1)C(=O)N[C@H](CO)C(=O)N[C@H](Cc1ccccc1)C(N)=O)C(C)C | Cd274 (Mus musculus, UniProt Q9EP73) | microscale thermophoresis | – | 6 h, His-tagged protein | 4.2 ± 2.5 µM |
| NCCCC[C@H](NC(=O)[C@@H](N)Cc1ccc(O)cc1)C(=O)N[C@@H](Cc1ccccc1)C(=O)O | PRT1 | ITC | – | pH 7.5, 25 °C | 6.86 ± 0.264 µM |
| CC[C@H](C)[C@H](NC(=O)CNC(=O)[C@H](CC(=O)O)NC(=O)[C@H](Cc1ccc(OP(=O)(O)O)cc1)NC(=O)[C@@H]1CCCN1C(=O)[C@H](CCCCN)NC(=O)[C@H](CO)NC(=O)CNC(=O)[C@H](Cc1ccccc1)NC(=O)[C@@H](NC(=O)[C@H](CCSC)NC(=O)[C@H](CC(C)C)NC(=O)[C@H](CCC(=O)O)NC(=O)c1ccc2c(c1)C(=O)OC21c2ccc(N(C)C)cc2Oc2cc(N(C)C)ccc21)[C@@H](C)O)C(=O)N1CCC[C@H]1C(=O)N[C@@H](C)C(=O)N[C@@H](CO)C(=O)N[C@@H](CCC(=O)O)C(=O)N[C@@H](CC(=O)O)C(=O)O | YES1 SH2 domain | binding | – | – | 0.328 µM |
| CC(=O)CCCNC(=O)CCNC(=O)[C@H](O)C(C)(C)COP(=O)(O)OP(=O)(O)OC[C@H]1O[C@@H](n2cnc3c(N)ncnc32)[C@H](O)[C@@H]1OP(=O)(O)O | gltA, with oxaloacetate (Thermoplasma acidophilum, UniProt P21553) | binding, fluorescence titration | – | pH 8, 20 °C, together with: oxaloacetate | 1.47 µM and 1.56 µM |
| CC[C@H](CO)Nc1nc(NCc2ccc(-c3ccccn3)cc2)c2ncn(C(C)C)c2n1 | PIP4K2B (Homo sapiens, UniProt P78356) | binding, competition affinity chromatography | SH-SY5Y cell extract | – | 12.6 µM |
| CC[C@H](C)[C@H](NC(=O)[C@H](C)NC(=O)CNC(=O)[C@H](CCC(N)=O)NC(=O)[C@@H](NC(=O)[C@H](CC(=O)O)NC(=O)[C@H](CCCNC(=N)N)NC(=O)[C@H](Cc1ccccc1)NC(=O)[C@H](CO)NC(=O)[C@H](CCCNC(=N)N)NC(=O)[C@H](CCCNC(=N)N)NC(=O)[C@H](CCCNC(=N)N)NC(=O)[C@H](CC(=O)O)NC(=O)[C@H](CC(C)C)NC(=O)[C@H](Cc1ccccc1)NC(=O)[C@H](CCCCN)NC(=O)[C@H](CCC(N)=O)NC(=O)[C@H](Cc1ccccc1)NC(=O)c1ccc(-c2c3ccc(=[N+](C)C)cc-3oc3cc(N(C)C)ccc23)c(C(=O)[O-])c1)[C@@H](C)CC)C(=O)N[C@@H](CO)C(=O)N[C@@H](CCCCN)C(=O)N[C@H](C(=O)N[C@@H](CC(=O)O)C(=O)N1CCC[C@H]1C(=O)N[C@@H](CCC(=O)O)C(=O)N[C@H](C(=O)N[C@H](C(=O)N[C@@H](CCCCN)C(=O)N[C@@H](CO)C(=O)N[C@@H](CC(C)C)C(=O)N[C@@H](CC(C)C)C(=O)N[C@@H](C)C(=O)N[C@@H](CO)C(=O)N[C@H](C(=O)O)[C@@H](C)O)[C@@H](C)CC)[C@@H](C)CC)[C@@H](C)CC | Transcription factor MYC4, residues 55-253 (MYC4, Arabidopsis thaliana, UniProt O49687) | fluorescence anisotropy | – | protein titration, together with: TMR-labelled tracer | 0.3 µM |
| N[C@@H](CO)C(=O)O | spt (Sphingomonas paucimobilis, UniProt Q93UV0, R378A) | binding | – | – | 1340 µM |
| CC[C@H](C)[C@H](NC(=O)[C@H](CC(=O)O)NC(=O)[C@H](C)NC(=O)[C@H](Cc1ccc(OP(=O)(O)O)cc1)NC(=O)[C@H](CCCCN)NC(=O)[C@@H](NC(=O)[C@H](CC(=O)O)NC(=O)CNC(=O)[C@H](CCCCN)NC(=O)[C@H](CCSC)NC(=O)[C@H](CC(=O)O)NC(=O)[C@H](CC(C)C)NC(=O)[C@H](CCSC)NC(=O)c1ccc2c(c1)C(=O)OC21c2ccc(N(C)C)cc2Oc2cc(N(C)C)ccc21)C(C)C)C(=O)N[C@@H](CCC(=O)O)C(=O)N[C@@H](CO)C(=O)N[C@@H](CO)C(=O)N[C@@H](CC(N)=O)C(=O)N[C@@H](CC(=O)O)C(=O)O | 1-phosphatidylinositol 4,5-bisphosphate phosphodiesterase gamma-2, SH2 domain (PLCG2, Homo sapiens, UniProt P16885) | binding | – | – | 0.557 µM |
| CC(=O)N[C@H]1[C@@H](O[C@H](C)[C@H](NC(=O)CNC(=O)[C@H](C)NC(=O)CNC(=O)[C@H](C)NC(=O)CNC(=O)[C@H](C)NC(=O)CNC(=O)[C@@H](NC(=O)[C@H](C)NC(=O)CN)[C@@H](C)O[C@H]2O[C@H](CO)[C@H](O)[C@H](O)[C@H]2NC(C)=O)C(=O)N[C@H](C(=O)N2CCC[C@H]2C(=O)NCC(=O)N2CCC[C@H]2C(=O)NCC(N)=O)[C@@H](C)O)O[C@H](CO)[C@H](O)[C@@H]1O | Polypeptide N-acetylgalactosaminyltransferase 4 (GALNT4, Homo sapiens, UniProt Q8N4A0, Q285A/T283S) | surface plasmon resonance | – | – | 435 µM |
| CC[C@H](C)[C@H](NC(=O)[C@H](Cc1ccc(OP(=O)(O)O)cc1)NC(=O)[C@H](CCC(=O)O)NC(=O)[C@H](Cc1c[nH]cn1)NC(=O)CNC(=O)[C@H](CC(=O)O)NC(=O)[C@H](CO)NC(=O)[C@H](CO)NC(=O)[C@@H](NC(=O)[C@H](CO)NC(=O)[C@H](CCC(=O)O)NC(=O)c1ccc2c(c1)C(=O)OC21c2ccc(N(C)C)cc2Oc2cc(N(C)C)ccc21)C(C)C)C(=O)N[C@@H](Cc1ccc(O)cc1)C(=O)N[C@H](C(=O)N[C@@H](CC(=O)O)C(=O)N1CCC[C@H]1C(=O)N[C@@H](CCSC)C(=O)N[C@@H](CCC(N)=O)C(=O)N[C@@H](CC(=O)O)C(=O)O)C(C)C | Phosphatidylinositol 3-kinase regulatory subunit gamma, SH2 domain (Homo sapiens, UniProt Q92569) | binding | – | – | 1.03 µM |
| CN[C@@H](Cc1c[nH]c2ccccc12)C(=O)O | N-methyl-L-tryptophan oxidase, oxidized (solA, Escherichia coli, UniProt P40874) | anaerobic stopped-flow | – | pH 8.0, 25 °C, reductive half-reaction, fast phase | 1170 ± 59 µM |
| CC[C@H](C)[C@H](NC(=O)[C@H](Cc1ccc(OP(=O)(O)O)cc1)NC(=O)[C@H](CCC(=O)O)NC(=O)[C@@H]1CCCN1C(=O)[C@@H](NC(=O)[C@@H]1CCCN1C(=O)[C@H](CC(C)C)NC(=O)[C@H](Cc1ccccc1)NC(=O)[C@@H](NC(=O)[C@H](CC(=O)O)NC(=O)[C@H](CC(=O)O)NC(=O)c1ccc2c(c1)C(=O)OC21c2ccc(N(C)C)cc2Oc2cc(N(C)C)ccc21)[C@@H](C)O)C(C)C)C(=O)N[C@@H](CC(N)=O)C(=O)N[C@@H](CCC(N)=O)C(=O)N[C@@H](CO)C(=O)N[C@H](C(=O)N1CCC[C@H]1C(=O)N[C@@H](CCCCN)C(=O)N[C@@H](CC(=O)O)C(=O)O)C(C)C | YES1 SH2 domain | binding | – | – | 0.337 µM |
| NCCCC[C@H](NC(=O)[C@@H](N)Cc1ccccc1)C(=O)N[C@@H](Cc1ccccc1)C(=O)O | PRT1 | ITC | – | pH 7.5, 25 °C | 3.48 ± 0.497 µM |
| NCCCC[C@H](N)C(=O)O | Uncharacterized protein (Pelagibacter ubique, UniProt Q4FM26) | isothermal titration calorimetry | Candidatus Pelagibacter ubique | – | 0.284 µM and 0.106 µM |
| CC(C)(O)C(O)C(=O)O (centres unmarked) | Dihydroxy-acid dehydratase, chloroplastic (DHAD, Arabidopsis thaliana, UniProt Q9LIR4) | binding, microscale thermophoresis | – | 25 °C | 3.46 µM |
| CSCC[C@H](NC(=O)[C@H](CC(=O)O)NC(=O)c1ccc2c(c1)C(=O)OC21c2ccc(N(C)C)cc2Oc2cc(N(C)C)ccc21)C(=O)N[C@@H](CO)C(=O)N[C@@H](CCCCN)C(=O)N[C@@H](CC(=O)O)C(=O)N[C@@H](CCC(=O)O)C(=O)N[C@@H](CO)C(=O)N[C@H](C(=O)N[C@@H](CC(=O)O)C(=O)N[C@@H](Cc1ccc(OP(=O)(O)O)cc1)C(=O)N[C@H](C(=O)N1CCC[C@H]1C(=O)N[C@@H](CCSC)C(=O)N[C@@H](CC(C)C)C(=O)N[C@@H](CC(=O)O)C(=O)N[C@@H](CCSC)C(=O)N[C@@H](CCCCN)C(=O)N[C@@H](CC(=O)O)C(=O)O)C(C)C)C(C)C | SH2 domain-containing protein 3C, SH2 domain (SH2D3C, Homo sapiens, UniProt Q8N5H7) | binding | – | – | 0.6 µM |
| CC(C)S[C@@H]1O[C@H](CO)[C@H](O)[C@H](O)[C@H]1O | lacI (Escherichia coli, UniProt P03023, N125A) | – | – | – | 1.2 ± 0.2 µM |

A few entries again:
| Compound | target | assay | system | conditions | Kd |
| --- | --- | --- | --- | --- | --- |
| N[C@@H](CO)C(=O)O | spt (Sphingomonas paucimobilis, UniProt Q93UV0, R378A) | binding | – | – | 1340 µM |
| CC[C@@H](C)[C@@H](NC(=O)[C@@H](Cc1ccc(O)cc1)NC(=O)[C@H]1CCCN1C(=O)[C@@H](CCCNC(=N)N)NC(=O)[C@H](N)Cc1c[nH]cn1)C(=O)N[C@H](C)C(=O)N[C@H](Cc1c[nH]cn1)C(=O)N[C@H](CCCNC(=N)N)C(=O)N[C@@H](C(=O)N[C@H](Cc1ccc(O)cc1)C(=O)N[C@H](CO)C(=O)N[C@H](Cc1ccccc1)C(N)=O)C(C)C | Cd274 (Mus musculus, UniProt Q9EP73) | microscale thermophoresis | – | 6 h, His-tagged protein | 4.2 ± 2.5 µM |
| CC[C@H](C)[C@H](NC(=O)[C@H](Cc1ccc(OP(=O)(O)O)cc1)NC(=O)[C@H](CCC(=O)O)NC(=O)[C@@H]1CCCN1C(=O)[C@@H](NC(=O)[C@@H]1CCCN1C(=O)[C@H](CC(C)C)NC(=O)[C@H](Cc1ccccc1)NC(=O)[C@@H](NC(=O)[C@H](CC(=O)O)NC(=O)[C@H](CC(=O)O)NC(=O)c1ccc2c(c1)C(=O)OC21c2ccc(N(C)C)cc2Oc2cc(N(C)C)ccc21)[C@@H](C)O)C(C)C)C(=O)N[C@@H](CC(N)=O)C(=O)N[C@@H](CCC(N)=O)C(=O)N[C@@H](CO)C(=O)N[C@H](C(=O)N1CCC[C@H]1C(=O)N[C@@H](CCCCN)C(=O)N[C@@H](CC(=O)O)C(=O)O)C(C)C | YES1 SH2 domain | binding | – | – | 0.337 µM |
